Results from different studies.
Each line is one published result; not all experiments were run side by side.
Organism: Staphylococcus aureus

| SMILES | test | system | conditions | MIC |
| --- | --- | --- | --- | --- |
| COc1cccc(OC)c1C(=O)N[C@@H]1C(=O)N2[C@@H]1SC(C)(C)[C@@H]2C(=O)O | – | clinical isolate | 18 to 20 h, 37 °C | > 128 µM |
| COc1ccc2ccc(O)c(/C=N/[C@H]3CCCC[C@H]3/N=C/c3cc(C(C)(C)C)cc(C(C)(C)C)c3O)c2c1 | bacterial growth, broth microdilution | vancomycin-intermediate | – | > 40 µM |
| CCn1c(-c2ccc(-c3ccc(F)cc3)cc2)c(-c2ccc(-c3ccc(F)cc3)cc2)n(CC)c1=[Se] | microbial growth, broth dilution | ATCC700699 VISA | 24 h, drug-resistant strain | > 40 µM |
| CC[C@H](C)[C@H](NC(=O)CNC(=O)[C@@H](NC(=O)CNC(=O)[C@@H](NC(=O)CNC(=O)[C@@H](NC(=O)[C@@H](NC(=O)[C@H](CCC(N)=O)NC(=O)[C@H](CCC(=O)O)NC(=O)[C@@H](NC(=O)[C@H](CC(C)C)NC(=O)[C@H](CCCNC(=N)N)NC(=O)[C@H](Cc1ccccc1)NC(=O)[C@@H](NC(=O)[C@H](CC(N)=O)NC(=O)[C@H](CCCCN)NC(=O)CNC(=O)[C@H](CCSC)NC(=O)[C@H](CCCCN)NC(=O)CNC(=O)[C@H](CC(C)C)NC(=O)[C@H](CCCCN)NC(=O)[C@H](CCCCN)NC(=O)CNC(=O)[C@H](Cc1ccccc1)NC(=O)[C@H](CCCCN)NC(=O)[C@H](CCCCN)NC(=O)[C@H](CC(C)C)NC(=O)[C@H](Cc1c[nH]c2ccccc12)NC(=O)CN)C(C)C)C(C)C)C(C)C)C(C)C)C(C)C)C(C)C)C(=O)N[C@@H](CC(N)=O)C(=O)N[C@@H](C)C(=O)N[C@@H](CC(C)C)C(=O)N[C@@H](CO)C(=O)O | broth microdilution | ATCC 29213, Mueller-Hinton broth | 16 to 20 h, 37 °C | 17.6 µg/mL |
| CC(C)CCCCCCCCC/C=C/C(=O)N[C@@H](CC(N)=O)C(=O)N[C@H]1CNC(=O)[C@@H]2CCCN2C(=O)[C@H](C(C)C)NC(=O)[C@@H](CN)NC(=O)CNC(=O)[C@H](CC(=O)O)NC(=O)CNC(=O)[C@H](CC(=O)O)NC(=O)[C@H](CC(=O)O)NC(=O)[C@H]2CCCCN2C1=O | broth microdilution | MRSA USA300, Mueller-Hinton broth, Mg2+ 10 mg/L | 16 h, 37 °C, with: Ca2+ 10 mM | 2 µg/mL |
| CC[C@H]1OC(=O)[C@H](C)[C@@H](OC(=O)Cc2ccc(N)cc2)[C@H](C)[C@@H](O[C@@H]2O[C@H](C)C[C@H](N(C)C)[C@H]2O)[C@](C)(OC)C[C@@H](C)C(=O)[C@H](C)[C@@H](O)[C@]1(C)O | – | BAA-977 | – | 16 µg/mL |
| Cc1ccc2nc(C)c(C(=O)C(=O)NCc3ccccc3)n2c1 | microbial growth, broth dilution | – | – | > 128 µM |
| CC[C@H](C)[C@H](NC(=O)[C@@H](CCCNC(=N)N)NC(=O)[C@H](CCCNC(=N)N)NC(=O)[C@H](C)NC(=O)[C@H](Cc1c[nH]c2ccccc12)NC(=O)[C@H](CCCNC(=N)N)NC(=O)[C@@H]1CCCN1C(=O)[C@H](CCCNC(=N)N)NC(=O)[C@@H]1CCCN1C(=O)[C@H](CC(C)C)NC(=O)[C@H](Cc1ccc(O)cc1)NC(=O)[C@@H]1CCCN1C(=O)[C@@H]1CCCN1C(=O)[C@H](CCCCN)NC(=O)[C@H](CC(=O)O)NC(=O)[C@@H](N)C(C)C)C(=O)N[C@@H](Cc1ccc(O)cc1)C(=O)N[C@@H](CC(N)=O)C(=O)N[C@H](CCCNC(=N)N)C(N)=O | broth microdilution | DSM 6247 | 18 h, 37 °C, 25% MHB2 | 128 µg/mL |
| Cc1ccc2[nH]c3c(c2c1)CCCC3NCCc1ccc(O)cc1 (stereo not shown) | broth microdilution | USA300 JE2 MRSA | – | 16 µg/mL |
| C#CCOc1ccc(CN[C@@]2(C)C[C@H](O[C@H]3[C@H](Oc4c5cc6cc4Oc4ccc(cc4Cl)[C@@H](O)[C@@H](NC(=O)[C@@H](CC(C)C)NC)C(=O)N[C@@H](CC(N)=O)C(=O)N[C@H]6C(=O)N[C@H]4C(=O)N[C@H](C(=O)N[C@H](C(=O)O)c6cc(O)cc(O)c6-c6cc4ccc6O)[C@H](O)c4ccc(c(Cl)c4)O5)O[C@H](CO)[C@@H](O)[C@@H]3O)O[C@@H](C)[C@H]2O)cc1OC | – | NRS402 VISA | – | 10 µM |
| Oc1c(Br)cc(Br)c2nc3cc(F)c(F)cc3nc12 | broth microdilution | MRSA BAA-1707 | – | 0.15 µM |
| CN[C@H](CC(C)C)C(=O)N[C@H]1C(=O)N[C@@H](CC(N)=O)C(=O)N[C@H]2C(=O)N[C@H]3C(=O)N[C@H](C(=O)N[C@H](C(=O)NCC(N)=O)c4cc(O)cc(O)c4-c4cc3ccc4O)[C@H](O)c3ccc(c(Cl)c3)Oc3cc2cc(c3O[C@@H]2O[C@H](CO)[C@@H](O)[C@H](O)[C@H]2O[C@H]2C[C@](C)(NCc3ccc(OCc4cn(CC(=O)N[C@H](C(=O)N[C@@H](CCN)C(=O)N[C@H]5CCNC(=O)[C@H]([C@@H](C)O)NC(=O)[C@H](CCN)NC(=O)[C@H](CCN)NC(=O)[C@H](CC(C)C)NC(=O)[C@@H](CC(C)C)NC(=O)[C@H](CCN)NC5=O)[C@@H](C)O)nn4)c(OC)c3)[C@H](O)[C@H](C)O2)Oc2ccc(cc2Cl)[C@H]1O | – | LIM-2 VISA | – | 0.74 µM |
| CC[C@H](C)[C@H](N)C(=O)N[C@H](C)C(=O)N[C@@H](CC(C)C)C(=O)N[C@H](CCC(=O)O)C(=O)N[C@H](C(=O)N[C@H]1CCCCNC(=O)[C@H](CC(N)=O)NC(=O)[C@@H](CC(=O)O)NC(=O)[C@H](Cc2c[nH]cn2)NC(=O)[C@@H](Cc2ccccc2)NC(=O)[C@H]([C@@H](C)CC)NC(=O)[C@@H](CCCN)NC1=O)[C@@H](C)CC | – | ATCC 29213 methicillin-susceptible | 18 h, 37 °C, 0.3 mM ZnSO4 LB | > 64 µg/mL |

A few entries again:
| SMILES | test | system | conditions | MIC |
| --- | --- | --- | --- | --- |
| CC[C@H](C)[C@H](NC(=O)CNC(=O)[C@@H](NC(=O)CNC(=O)[C@@H](NC(=O)CNC(=O)[C@@H](NC(=O)[C@@H](NC(=O)[C@H](CCC(N)=O)NC(=O)[C@H](CCC(=O)O)NC(=O)[C@@H](NC(=O)[C@H](CC(C)C)NC(=O)[C@H](CCCNC(=N)N)NC(=O)[C@H](Cc1ccccc1)NC(=O)[C@@H](NC(=O)[C@H](CC(N)=O)NC(=O)[C@H](CCCCN)NC(=O)CNC(=O)[C@H](CCSC)NC(=O)[C@H](CCCCN)NC(=O)CNC(=O)[C@H](CC(C)C)NC(=O)[C@H](CCCCN)NC(=O)[C@H](CCCCN)NC(=O)CNC(=O)[C@H](Cc1ccccc1)NC(=O)[C@H](CCCCN)NC(=O)[C@H](CCCCN)NC(=O)[C@H](CC(C)C)NC(=O)[C@H](Cc1c[nH]c2ccccc12)NC(=O)CN)C(C)C)C(C)C)C(C)C)C(C)C)C(C)C)C(C)C)C(=O)N[C@@H](CC(N)=O)C(=O)N[C@@H](C)C(=O)N[C@@H](CC(C)C)C(=O)N[C@@H](CO)C(=O)O | broth microdilution | ATCC 29213, Mueller-Hinton broth | 16 to 20 h, 37 °C | 17.6 µg/mL |
| CC(C)CCCCCCCCC/C=C/C(=O)N[C@@H](CC(N)=O)C(=O)N[C@H]1CNC(=O)[C@@H]2CCCN2C(=O)[C@H](C(C)C)NC(=O)[C@@H](CN)NC(=O)CNC(=O)[C@H](CC(=O)O)NC(=O)CNC(=O)[C@H](CC(=O)O)NC(=O)[C@H](CC(=O)O)NC(=O)[C@H]2CCCCN2C1=O | broth microdilution | MRSA USA300, Mueller-Hinton broth, Mg2+ 10 mg/L | 16 h, 37 °C, with: Ca2+ 10 mM | 2 µg/mL |
